Results collected from several papers.
Numbered parts are unrelated; each lists some results of a single study. Positions count from the first letter of the parent shown.

Sample 1 — target: CCNF, cyclin fold, Cln2 fusion (human); technique: yeast growth competition, sequencing; medium: yeast; notes: strong parent motif; reference: not given; direction: higher = stronger binding; measurement: normalised enrichment score
Starting sequence: E2F1 docking peptide (human); PPVKRRLDLETDH; partner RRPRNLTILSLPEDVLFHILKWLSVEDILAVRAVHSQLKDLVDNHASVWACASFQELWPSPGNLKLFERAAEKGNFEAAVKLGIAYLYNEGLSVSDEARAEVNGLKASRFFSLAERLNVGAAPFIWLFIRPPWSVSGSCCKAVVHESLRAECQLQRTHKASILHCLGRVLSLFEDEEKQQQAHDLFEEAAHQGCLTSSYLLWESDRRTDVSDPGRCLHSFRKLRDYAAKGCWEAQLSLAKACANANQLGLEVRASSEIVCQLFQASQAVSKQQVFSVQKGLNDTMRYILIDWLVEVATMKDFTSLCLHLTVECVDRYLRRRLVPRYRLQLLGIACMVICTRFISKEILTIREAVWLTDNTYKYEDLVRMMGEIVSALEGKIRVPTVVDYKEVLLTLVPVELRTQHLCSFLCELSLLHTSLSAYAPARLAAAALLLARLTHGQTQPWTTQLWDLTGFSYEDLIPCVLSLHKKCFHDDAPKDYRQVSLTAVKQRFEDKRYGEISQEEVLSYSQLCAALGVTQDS
D12Y: 9.52
V3C: 6.73
R6K: 5.29
E10G: 7.36
R5M: -0.635
P1F: 7.89
V3N: 1.34
P2W: 5.68

Sample 2 — observed: enzyme activity; mode: inhibitor; concentration: 0.5 µM; reference: control; measurement: remaining activity
Target: Casein kinase II subunit alpha' (CSNK2A2, Homo sapiens, UniProt P19784)
Chain of UniProt P19784 (whole entry, looked up): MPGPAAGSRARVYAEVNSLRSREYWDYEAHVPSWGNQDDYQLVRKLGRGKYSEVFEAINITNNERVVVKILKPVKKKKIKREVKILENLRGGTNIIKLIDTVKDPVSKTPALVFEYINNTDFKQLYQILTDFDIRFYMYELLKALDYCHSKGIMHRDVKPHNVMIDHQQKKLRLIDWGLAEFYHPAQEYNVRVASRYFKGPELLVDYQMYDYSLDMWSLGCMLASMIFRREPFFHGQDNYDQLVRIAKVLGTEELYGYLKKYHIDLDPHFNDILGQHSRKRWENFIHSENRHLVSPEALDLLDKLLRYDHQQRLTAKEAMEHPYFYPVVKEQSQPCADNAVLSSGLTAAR
Cn1sc(=O)n(Cc2ccccc2)c1=O: 98.5%
COc1cc2ncnc(Nc3ccc(F)c(Cl)c3)c2cc1OCCCN1CCOCC1: 88.6%
CNC(=O)c1cc(Oc2ccc(NC(=O)Nc3ccc(Cl)c(C(F)(F)F)c3)cc2)ccn1: 94.4%
Cc1cccc(-c2[nH]c(C(C)(C)C)nc2-c2ccc3c(c2)OCO3)n1: 83.6%
COc1ccc(OC)c2c(=S)c3ccccc3[nH]c12: 87.1%
COc1cc2ncnc(Nc3ccc(Oc4ccccc4)cc3)c2cc1OC: 98.2%
O=C1NC(=O)C(c2cn(CCCn3ccnc3)c3ccccc23)=C1Nc1ccccc1: 87.6%
Cn1c2ccccc2c2c3c(c4c5ccccc5n(CCC#N)c4c21)CNC3=O: 104%
Cc1nc(-c2ccccc2)c(-c2ccncc2)o1: 89.8%
O=C(Nc1cccc(Nc2cc(Nc3cccc(C(F)(F)F)c3)ncn2)c1)C1CC1: 94.9%
O=c1c2ccccc2[nH]c(=S)n1CCN1CCC(=C(c2ccc(F)cc2)c2ccc(F)cc2)CC1: 97.7%
O=C(O)c1ccc2c3c1cccc3c(=O)n1c3ccccc3nc21: 13.3%
O=C(CCCc1ccc(-c2ccccc2F)cc1)Nc1ccc(O)cc1: 78.7%
O=S(=O)(c1cccc2cnccc12)N1CCCNCC1: 91.9%

Sample 3 — observed: binding; technique: radioligand binding; concentration: 10 µM; measurement: inhibition
Target: D(1A) dopamine receptor (DRD1, Homo sapiens, UniProt P21728)
Chain of UniProt P21728 (whole entry, looked up): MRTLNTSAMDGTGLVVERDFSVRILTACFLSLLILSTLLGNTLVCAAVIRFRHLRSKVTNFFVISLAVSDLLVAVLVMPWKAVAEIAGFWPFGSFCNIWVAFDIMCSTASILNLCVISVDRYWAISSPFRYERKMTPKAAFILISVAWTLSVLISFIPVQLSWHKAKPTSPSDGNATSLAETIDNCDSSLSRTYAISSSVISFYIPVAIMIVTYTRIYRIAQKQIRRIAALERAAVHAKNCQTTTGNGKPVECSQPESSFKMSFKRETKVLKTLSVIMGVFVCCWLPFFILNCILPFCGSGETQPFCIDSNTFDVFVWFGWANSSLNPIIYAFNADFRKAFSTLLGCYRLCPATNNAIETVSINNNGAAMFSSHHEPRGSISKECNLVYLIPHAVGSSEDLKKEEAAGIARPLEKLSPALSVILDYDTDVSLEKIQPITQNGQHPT
O=C1c2ccc(Nc3ccc(F)cc3F)cc2CCc2ccc(OC[C@H](O)CO)cc21: 5.83%
Cc1c(N2CCCC2)nc2ccc(Br)cc2c1C(=O)NC[C@H](CCC(=O)O)c1ccccc1Cl: 13.8%
CCOCCn1cc(C(=O)Nc2ccc(-n3nc(-c4cccnc4)cc3C(F)(F)F)cn2)ccc1=O: -7.31%
O=C(Nc1cccnn1)N1CCC(=Cc2cccc(Oc3ccc(C(F)(F)F)cn3)c2)CC1: -3.23%
CC(=O)Nc1c(F)cc(C(=O)N[C@H]2CC[C@H](O)CC2)cc1O[C@@H](C)c1ccccc1: 4.11%
Nc1c(C(=O)NCc2ccc(C(=O)NCCCC3CCCCC3)cc2)cnn1-c1ccccc1: -5.64%
CS(=O)(=O)NCC[C@H](NC(=O)c1cncc2c1cnn2-c1ccc(F)cc1)c1ccnc(S(C)(=O)=O)c1: -18.2%
CC1=C(C#N)[C@@H](c2ccc3[nH]nc(C)c3c2)C(C#N)=C(c2ccc(Cl)cc2)N1: 6.7%
CNC(=O)Nc1ccc2c(c1)[C@]1(CC2)OC(=O)N(CC(=O)N(Cc2ccc(F)cc2)[C@@H](C)C(F)(F)F)C1=O: 0.29%
CC(=O)c1c(NS(C)(=O)=O)c2cc(-c3ccc(Cl)cc3)c(-c3ccc(Cl)cc3Cl)nc2n(C)c1=O: 14.2%
CCOC(=O)c1cc2cc(-c3cc(C(=O)NCc4ccc(C(=O)O)cc4)nn3C)ccc2[nH]1: -5.02%
Cc1nccc(COC(=O)N2C[C@@H]3[C@@H](CNC(=O)c4ccc5[nH]nnc5c4)[C@@H]3C2)n1: -9.63%
CN1CCN(C(=O)C(C)(C)c2ccc(C(=O)Nc3cn4cc(-c5ccncc5)ccc4n3)cc2)CC1: 4.41%
CN([C@@H]1CCc2c(CC(=O)O)c3cc(S(C)(=O)=O)ccc3n2C1)S(=O)(=O)c1ccc(F)cc1: -2.96%
O=C([C@H]1C[C@H](O)CN1c1ccc(Cl)cc1)N1CC2COCC(C1)N2Cc1ccc(Cl)cc1: -16.5%
CC(=O)Nc1nc(CN2CCC[C@H](Cc3cc(C)nc(C)c3)C2)cs1: 10.7%
COc1nc2ccc([C@@](O)(c3ccccc3)C3CCN(C(C)=O)CC3)cc2c(Cl)c1Cc1ccc(-n2cccn2)cc1: 19.9%
COCCc1ccc(-c2c(C)nc3c(N4CCOCC4)ccnn23)cn1: 2.41%
Cc1nc(Cc2cccc(C(F)(F)F)c2)sc1-c1ccc(C(N)=O)nc1: -6.03%
C[C@@H]1CN(c2cc(-c3nn(C)c4ccc(OC5(C)CC5)cc34)ncn2)C[C@H](C)O1: -26.6%

Single results of other studies
CC(C)n1cnc(-c2ccc(F)cc2)c1-c1ncc(C(=O)Nc2ccc(N3CCN(C)CC3)cc2)[nH]1  abdominal discomfort incidence (IPF patients; 60 mg once daily, adverse event): 0%

Some of these lines once more (sample 1):
E10G: 7.36
R6K: 5.29
P2W: 5.68
